Published values gathered from unrelated publications.
Protocols differ between the studies behind these lines. ± gives the spread as reported.

CC[C@H](C)[C@H](NC(=O)[C@H](CCCNC(=N)N)NC(=O)[C@H](CCCNC(=N)N)NC(=O)[C@H](CC(C)C)NC(=O)CNC(=O)[C@H](CCC(N)=O)NC(=O)[C@@H](NC(=O)[C@@H](NC(=O)[C@H](Cc1c[nH]c2ccccc12)NC(=O)[C@@H](NC(=O)[C@H](CCC(=O)O)NC(=O)[C@@H]1CCCN1C(=O)[C@@H](N)CCCNC(=N)N)[C@@H](C)CC)[C@@H](C)CC)[C@@H](C)O)C(=O)NCC(=O)N[C@@H](CC(=O)O)C(=O)N[C@@H](CCC(=O)O)C(=O)N[C@@H](Cc1ccccc1)C(=O)N[C@@H](CC(N)=O)C(=O)N[C@@H](C)C(=O)N[C@@H](Cc1ccc(O)cc1)C(=O)N[C@@H](Cc1ccc(O)cc1)C(=O)N[C@@H](C)C(=O)N[C@@H](CCCNC(=N)N)C(N)=O  EC50 (MDA-MB-231, Bcl-xL-dependent; mitochondrial depolarization, BH3 profiling with JC-1; 3 h): 18000 ± 11000 nM
Cc1ncc(Cl)cc1NCc1ccc(C(=O)N[C@@H](CC2CCCC2)C(=O)NC2CC2)s1  EC50 (K562 p21-reporter; p21 reporter gene, activator): 200 nM
O=C(c1cc(Cc2n[nH]c(=O)c3ccccc23)ccc1F)N1CCN(C(=O)C2CC2)CC1  EC50 (MEF PTEN-/-; cell proliferation, CellTiter-Glo; 168 h): 240 nM
CCOC(=O)c1cc(F)cc(NC(=O)c2sc(Cl)cc2S(=O)(=O)N(C)c2ccc(OCC)c(OC)c2)c1  EC50 (CCF-STTG1; reporter gene, activator, measured: ABCA1 promoter luciferase; 24 h): 30 nM
CCCNC(=O)[C@H]1O[C@@H]1C(=O)N[C@H](C(=O)N1CCC[C@H]1C(=O)OC)[C@@H](C)CC  EC50 (MCF-10A; cell viability, MTT; concentration not given, 4 h, irradiated 15 min up to 470 nm): > 100000 nM
N#Cc1ccc(C[C@H](Nc2nnc(-c3cccc(F)c3)o2)C(=O)N2CCc3ccccc32)cc1  EC50 (human neutrophils; calcium mobilization, agonist): > 50000 nM
C[C@H]1CNCCN1c1nccc(-c2noc3c2CCC[C@@]32CCCc3sc(N)c(C#N)c32)n1  EC50 (Ba/F3 (NRAS dependent); cell growth; 72 h, without IL-3): 1580 nM
CCOC(=O)c1cccc(NC(=O)c2sc(Cl)cc2S(=O)(=O)N(C)c2ccc(OCC)c(OCC)c2)c1  EC50 (CCF-STTG1; ABCA1 promoter reporter, activator, luciferase reporter): 817 nM
Cn1cc(-c2ccc(-c3cncc(Cl)c3N3CCC4(CCNC4=O)CC3)cc2)cn1  log2 fold change (COLO 205; gene expression, microarray, measured: CDKN1C mRNA; concentration not given, 6 h; baseline: untreated cells): 1.74
COc1cc(/C=C/C(=O)N2CCC=CC2=O)cc(OC)c1OC  EC90 (Toxoplasma gondii; parasite growth, luciferase reporter; HFF, tachyzoite; 72 h): 8980 nM
CCOc1ccc(N(C)S(=O)(=O)c2cc(Cl)sc2C(=O)Nc2ccc3c(c2)C(=O)NC3=O)cc1OC  EC50 (CCF-STTG1; reporter gene, activator, measured: ABCA1 promoter luciferase; 24 h): 1600 nM
CC1(C)CCC2=C(O1)c1ccccc1C(=O)C2=O  EC90 (Toxoplasma gondii; parasite growth; HFF, bradyzoite, glutamine-induced): 64100 nM
C[C@]12CCCN1CC1=NNC(=O)c3cc(F)cc4[nH]c2c1c34  EC50 (MEF PTEN-/-; cell proliferation, CellTiter-Glo; 168 h): 220 nM
N#Cc1ccc(C[C@H](Nc2c(Nc3ccc(Br)cc3)c(=O)c2=O)C(=O)N2CCc3ccccc32)cc1  EC50 (human neutrophils; calcium mobilization, agonist): 600 ± 300 nM
CCOC(=O)c1cccc(NC(=O)c2sccc2S(=O)(=O)N(C)c2cccc(OCC)c2)c1  EC50 (CCF-STTG1; reporter gene, activator, measured: ABCA1 promoter luciferase; 24 h): 4600 nM
N#Cc1ccc(C[C@@H](Nc2nnc(-c3ccc(Br)cc3)o2)C(=O)N2CCc3ccccc32)cc1  EC50 (human neutrophils; calcium mobilization, agonist): > 50000 nM
C=C1C(=O)O[C@H]2[C@H]1CC/C(C)=C/CC[C@@]1(C)O[C@@H]21  EC50 (MYBPC3 mutant iPSC-derived cardiomyocytes; measured: MYH; 24 h): inactive
CCn1cc(-c2cc(Cn3ccnc3)cc3c2CCN([C@H](c2cc(OC)ccn2)C2CC2)C3=O)c(C(F)(F)F)n1  EC50 (FaDu; cell growth, inhibitor; 120 h): > 30000 nM
Cc1nn(-c2nc3c(F)cc(F)cc3s2)c(O)c1C(c1ccc(C(F)(F)F)cc1)c1c(C)nn(-c2nc3c(F)cc(F)cc3s2)c1O  EC50 (RAW-ISG (mouse); IFN reporter gene, inhibitor, luciferase; together with: HT-DNA): 2670 nM
COc1cnc2cccc(N3CCc4c(cc(Cn5ccnc5C)cc4-c4cn(C)nc4C(F)(F)F)C3=O)c2c1  EC50 (SK-LU-1; cell growth, inhibitor; 120 h): > 30000 nM
N#Cc1ccc(C[C@@H](Nc2c(Nc3ccc(F)cc3)c(=O)c2=O)C(=O)N2CCc3ccccc32)cc1  EC50 (human neutrophils; calcium mobilization, agonist): 12800 ± 2900 nM
CCOC(=O)c1cccc(-c2nnc(-c3sc(Cl)cc3S(=O)(=O)N(C)c3ccc(OCC)c(OC)c3)o2)c1  EC50 (CCF-STTG1; reporter gene, activator, measured: ABCA1 promoter luciferase; 24 h): 3000 nM
N#Cc1ccc(C[C@@H](NC(=O)c2cc3ccc(F)cc3[nH]2)C(=O)N2CCc3ccccc32)cc1  EC50 (human neutrophils; calcium mobilization, agonist): > 50000 nM
CCOc1ccc(N(C)S(=O)(=O)c2cc(Cl)sc2C(=O)Nc2cc(Cl)cc(C(=O)OCCOCCOC)c2)cc1OC  EC50 (CCF-STTG1; ABCA1 promoter reporter, activator, luciferase reporter): 138 nM
N#Cc1ccc(C[C@@H](NC(=O)c2cc3cc(F)ccc3[nH]2)C(=O)N2CCc3ccccc32)cc1  EC50 (human neutrophils; calcium mobilization, agonist): > 50000 nM
CCOc1ccc(N(C)S(=O)(=O)c2cc(Cl)sc2C(=O)Nc2cc(Cl)cc(C(=O)OCCOC)c2)cc1OC  EC50 (CCF-STTG1; reporter gene, activator, measured: ABCA1 promoter luciferase; 24 h): 70 nM
N#Cc1ccc(C[C@H](Nc2ncc(-c3ccc(F)cc3)o2)C(=O)N2CCc3ccccc32)cc1  EC50 (human neutrophils; calcium mobilization, agonist): > 50000 nM
CCn1cc(-c2cc(Cn3ccoc3=N)cc3c2CCN([C@@H](C)c2cc(OC)ccn2)C3=O)c(C(F)(F)F)n1  EC50 (COLO-668; cell growth, inhibitor; 120 h): 10900 nM
N#Cc1ccc(C[C@H](NC(=O)c2cc3ccccc3[nH]2)C(=O)N2CCc3ccccc32)cc1  EC50 (human neutrophils; calcium mobilization, agonist): > 50000 nM
CCOc1ccc(N(C)S(=O)(=O)c2cc(Cl)sc2C(=O)Nc2cc(Cl)cc(C(=O)OC)c2)cc1OC  EC50 (CCF-STTG1; ABCA1 promoter reporter, activator, luciferase reporter): 339 nM

For quick reference, copied from above:
CCOc1ccc(N(C)S(=O)(=O)c2cc(Cl)sc2C(=O)Nc2cc(Cl)cc(C(=O)OCCOCCOC)c2)cc1OC  EC50 (CCF-STTG1; ABCA1 promoter reporter, activator, luciferase reporter): 138 nM
N#Cc1ccc(C[C@@H](NC(=O)c2cc3cc(F)ccc3[nH]2)C(=O)N2CCc3ccccc32)cc1  EC50 (human neutrophils; calcium mobilization, agonist): > 50000 nM
CCOc1ccc(N(C)S(=O)(=O)c2cc(Cl)sc2C(=O)Nc2cc(Cl)cc(C(=O)OCCOC)c2)cc1OC  EC50 (CCF-STTG1; reporter gene, activator, measured: ABCA1 promoter luciferase; 24 h): 70 nM
N#Cc1ccc(C[C@H](Nc2ncc(-c3ccc(F)cc3)o2)C(=O)N2CCc3ccccc32)cc1  EC50 (human neutrophils; calcium mobilization, agonist): > 50000 nM
CCn1cc(-c2cc(Cn3ccoc3=N)cc3c2CCN([C@@H](C)c2cc(OC)ccn2)C3=O)c(C(F)(F)F)n1  EC50 (COLO-668; cell growth, inhibitor; 120 h): 10900 nM
